{"data": "Measurements of several laboratories", "note": "Compare with care: the assays were run in different laboratories. Numbers after ± are the reported error."}
{"SMILES": "O=C(NCC1OC2CCC=CCCC2O1)c1ccc(COCCOCCOCC[18F])cc1 (stereo not drawn)", "test system": "healthy female BALB/c nude mice, skin", "setting": "intravenous, 7.4 MBq per mouse, 30 min", "tissue uptake": "2.6 ± 0.2 %ID/g"}
{"SMILES": "CCCC[C@H](NC(=O)COCCOCCNC(=O)CN1CCN(CC(=O)O)CCN(CC(=O)O)CC1)C(=O)N[C@H]1CC(=O)NCCCC[C@@H](C(N)=O)NC(=O)[C@H](Cc2c[nH]c3ccccc23)NC(=O)[C@H](CCCNC(=N)N)NC(=O)[C@@H](Cc2ccccc2)NC(=O)[C@H](Cc2c[nH]cn2)NC1=O [fluorine-18 labelled]", "test system": "C57 mice B16-F10 melanoma, liver", "setting": "intravenous, 0.37 MBq, 0.5 h", "tissue uptake": "1.57 ± 0.28 %ID/g"}
{"SMILES": "COc1ccc(Nc2nc(Nc3ccc(OCCOCC[18F])cc3)ncc2Br)cc1", "test system": "ICR mice, S180 tumour-bearing, spleen", "setting": "intravenous, 370 kBq, 5 min", "tissue uptake": "2.94 ± 0.01 %ID/g"}
{"SMILES": "Cc1cc(C)n(CCN(CCN)CCCCCCNC(=O)[C@@H](N)Cc2c[nH]cn2)n1.[99Tc+].[C-]#[O+].[C-]#[O+].[C-]#[O+]", "test system": "BALB/c nude mice, MCF7 xenograft, liver", "setting": "intravenous, 15 min", "tissue uptake": "27.1 ± 1.67 %IA/g"}
{"SMILES": "O=C(O)CCCOc1ccc([18F])cc1-c1cc(-c2ccccc2C(F)(F)F)n(-c2ccccc2)n1", "test system": "mice, bladder and urine", "setting": "intravenous, 360 min", "tissue uptake": "0.73 ± 0.24 %ID/g"}
{"SMILES": "CCCC[C@H](NC(=O)CCCCCCCNC(=O)CN1CCN(CC(=O)O)CCN(CC(=O)O)CC1)C(=O)N[C@H]1CC(=O)NCCCC[C@@H](C(N)=O)NC(=O)[C@H](Cc2c[nH]c3ccccc23)NC(=O)[C@H](CCCNC(=N)N)NC(=O)[C@@H](Cc2ccccc2)NC(=O)[C@H](Cc2c[nH]cn2)NC1=O [fluorine-18 labelled]", "test system": "C57 mice B16-F10 melanoma, kidneys", "setting": "intravenous, 0.37 MBq, 0.5 h", "tissue uptake": "15 ± 0.8 %ID/g"}
{"SMILES": "CCCC[C@H](NC(=O)CNC(=O)CNC(=O)[C@H](CCCCNC(=O)[C@H](CC(=O)O)NC(=O)C(C)c1ccc(CC(C)C)cc1)NC(=O)CN1CCN(CC(=O)O)CCN(CC(=O)O)CCN(CC(=O)O)CC1)C(=O)N[C@H]1CC(=O)NCCCC[C@@H](C(N)=O)NC(=O)[C@H](Cc2c[nH]c3ccccc23)NC(=O)[C@H](CCCNC(=N)N)NC(=O)[C@@H](Cc2ccccc2)NC(=O)[C@H](Cc2c[nH]cn2)NC1=O (stereo partly drawn) [lutetium-177 labelled]", "test system": "C57 mice, tumour-bearing, blood", "setting": "intravenous, 0.037 MBq, 0.5 h", "tissue uptake": "7.22 ± 0.9 %ID/g"}
{"SMILES": "O=C(NCC1OC2CCC=CCCC2O1)c1ccc([18F])nc1 (stereo not drawn)", "test system": "healthy female BALB/c nude mice, lungs", "setting": "intravenous, 7.4 MBq per mouse, 10 min", "tissue uptake": "6.4 ± 1.9 %ID/g"}
{"SMILES": "N#C[C@@H]1CCCN1C(=O)CNC(=O)c1ccnc2ccc(OCCCN3CCN(C(=O)CCc4ccc5c(c4)CN4CCN6CC(=O)[O][68Ga-]([O]C(=O)C4)([O]5)[O]c4ccc(CCC(=O)N5CCN(CCCOc7ccc8nccc(C(=O)NCC(=O)N9CCC[C@H]9C#N)c8c7)CC5)cc4C6)CC3)cc12", "test system": "BALB/c nude mice, U-87 MG xenograft, stomach", "setting": "1 h, blocking, added: DOTA-FAPI-04 40 nmol/mouse co-injected", "tissue uptake": "1.67 ± 0.8 %ID/g"}
{"note": "For quick reference, copied from above:"}
{"SMILES": "O=C(NCC1OC2CCC=CCCC2O1)c1ccc(COCCOCCOCC[18F])cc1 (stereo not drawn)", "test system": "healthy female BALB/c nude mice, skin", "setting": "intravenous, 7.4 MBq per mouse, 30 min", "tissue uptake": "2.6 ± 0.2 %ID/g"}
